Assay results of several laboratories.
± gives the spread as reported.

Structure (SMILES)	system	conditions	how to read	endpoint	value
O=C([O-])CN1CCN(CC(=O)[O-])CCN(CC(=O)NC[C@H]2CC[C@H](C(=O)N[C@H](Cc3cnc4ccccc4c3)C(=O)NCCCC[C@H](NC(=O)N[C@@H](CCC(=O)O)C(=O)O)C(=O)O)CC2)CCN(CC(=O)[O-])CC1.[64Cu+2]	ICR mouse, male	iv, 37 MBq, 14 days	reference: saline	body weight	no effect
Cc1nc2ccc(S(=O)(=O)n3nc(SCc4ccc(Cl)cc4)nc3N)cc2s1	diet-induced obese mouse	dose not given, chronic dosing		body weight	no effect
CO.Cc1ccc2c(Cl)cc(Cl)c([O-])c2n1.Cc1ccc2c(Cl)cc(Cl)c([O-])c2n1.[Co+2].c1ccc2nc3c4cccnc4c4ncccc4c3nc2c1	HeLa xenograft, nude mouse	2.0 mg/kg every 2 days		body weight	20.5 ± 1.3 g
CC(C)CN(CC(=O)N1CCN(CC(OCc2ccc3ccccc3c2)c2ccc(Cl)cc2Cl)CC1)CC(C)C (stereo not drawn)	nude mouse, MDA-MB-231 xenograft	oral gavage, 25, 50, 100 mg/kg/day, 14 days		body weight	stable
Cc1ccc(CN2C(=O)/C(=N\c3ccc(Cl)cc3Br)c3ccccc32)cc1	C57 mouse	10 and 20 mg/kg		body and organ weight	no effect
O=C(NCCN1C(=O)C=CC1=O)[O][Pt-2]12([O]C(=O)NCCN3C(=O)C=CC3=O)([NH2+][C@@H]3CCCC[C@H]3[NH2+]1)[O]C(=O)C(=O)[O]2	BALB/c mouse CT26 allograft	intravenous, equimolar to 9 mg/kg oxaliplatin, twice weekly for two weeks		body weight loss	< 10%
C#Cc1cccc(Nc2ncnc3cc(OC)c(OCCCN4CCOCC4)cc23)c1	nude mouse, A-431 xenograft	10 and 40 mg/kg/day		body weight	no effect
CCN(CC)C(=O)c1ccc(-c2cc(NCCCN3CCCCC3)c3ccccc3n2)cc1	mouse	food admixture, 0.01, 0.03, 0.05% w/w		body weight	no effect
O=c1[nH]c(N2CCC3(CC2)CN(CCO)c2cc(F)cc(F)c23)nc2c1CCCC2	NOD-SCID mouse, xenograft	oral, 300 mg/kg twice daily	reference: vehicle	body weight	no effect
COc1ccc2nc(NC(=O)c3ccc(C(N)c4ccccc4)cc3)sc2c1 (stereo not drawn)	mouse xenograft	25 mg/kg twice daily		body weight loss	< 15%
CCC(C)N(C)C(=O)c1nc(-c2cccc(C(F)(F)[18F])c2)c2ccccc2n1 (stereo not drawn)	healthy mouse	intravenous, dose not given, 28 days	reference: normal saline	body weight	no effect
CC(=O)Nc1ccc(OC(=O)CCC(=O)[O][Pt-2]23([O]C(=O)CCC(=O)Oc4ccc(NC(C)=O)cc4)([NH2+][C@@H]4CCCC[C@H]4[NH2+]2)[O]C(=O)C(=O)[O]3)cc1	BALB/c mouse, 4T1 tumour	dose not given		body weight	no effect

Repeated from above:
Structure (SMILES)	system	conditions	how to read	endpoint	value
CO.Cc1ccc2c(Cl)cc(Cl)c([O-])c2n1.Cc1ccc2c(Cl)cc(Cl)c([O-])c2n1.[Co+2].c1ccc2nc3c4cccnc4c4ncccc4c3nc2c1	HeLa xenograft, nude mouse	2.0 mg/kg every 2 days		body weight	20.5 ± 1.3 g
